Measured values from different studies.
Compare with care: the assays were run in different laboratories. ± gives the spread as reported.
cyp121: Mycocyclosin synthase (cyp121, Mycobacterium tuberculosis, UniProt P9WPP7)

Protein sequences, listed by entry. Tags and fused reporters are not part of them. Chains listed by the source or under a name are the forms on record and can include a tag or linker. Residues count along the entry.
UniProt P9WPP7, whole entry: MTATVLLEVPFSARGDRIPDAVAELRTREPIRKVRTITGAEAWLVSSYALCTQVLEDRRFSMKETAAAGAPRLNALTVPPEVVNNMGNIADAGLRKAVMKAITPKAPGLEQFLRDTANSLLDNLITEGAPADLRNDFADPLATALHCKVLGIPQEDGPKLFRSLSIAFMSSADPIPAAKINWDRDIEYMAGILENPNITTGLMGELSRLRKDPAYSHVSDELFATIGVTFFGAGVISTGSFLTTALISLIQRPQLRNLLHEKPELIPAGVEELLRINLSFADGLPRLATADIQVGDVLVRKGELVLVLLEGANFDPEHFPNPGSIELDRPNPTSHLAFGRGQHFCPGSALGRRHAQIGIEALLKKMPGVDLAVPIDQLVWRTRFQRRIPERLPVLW
UniProt P21553, whole entry, looked up: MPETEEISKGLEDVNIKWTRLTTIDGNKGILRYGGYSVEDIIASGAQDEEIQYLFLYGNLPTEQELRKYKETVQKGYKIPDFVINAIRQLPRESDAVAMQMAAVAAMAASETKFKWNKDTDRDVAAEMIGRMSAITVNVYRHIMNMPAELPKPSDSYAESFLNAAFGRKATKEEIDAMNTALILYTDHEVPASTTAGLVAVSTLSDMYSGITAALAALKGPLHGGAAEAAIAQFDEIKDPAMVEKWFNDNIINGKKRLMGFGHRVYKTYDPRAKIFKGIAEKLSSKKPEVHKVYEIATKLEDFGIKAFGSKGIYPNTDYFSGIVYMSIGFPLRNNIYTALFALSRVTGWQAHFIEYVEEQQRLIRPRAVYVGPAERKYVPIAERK
UniProt P03420, 26-109 partner limits assumed: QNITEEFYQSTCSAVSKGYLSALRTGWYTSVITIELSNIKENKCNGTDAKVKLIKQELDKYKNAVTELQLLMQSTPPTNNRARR
UniProt P03420, 137-513 with tags or gaps I379V/M447V/S155C/S190F/S290C/V207L limits assumed: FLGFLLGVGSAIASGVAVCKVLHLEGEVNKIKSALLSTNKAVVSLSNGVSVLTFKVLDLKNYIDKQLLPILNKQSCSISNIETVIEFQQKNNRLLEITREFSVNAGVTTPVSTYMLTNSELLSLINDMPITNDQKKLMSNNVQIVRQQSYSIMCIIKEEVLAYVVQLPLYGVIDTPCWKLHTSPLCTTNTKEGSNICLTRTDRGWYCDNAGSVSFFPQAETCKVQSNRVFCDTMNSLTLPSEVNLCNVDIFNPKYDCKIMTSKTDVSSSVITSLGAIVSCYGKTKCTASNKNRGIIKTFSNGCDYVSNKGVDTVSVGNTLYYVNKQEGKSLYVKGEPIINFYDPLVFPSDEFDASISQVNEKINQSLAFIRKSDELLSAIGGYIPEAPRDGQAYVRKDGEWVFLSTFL
UniProt Q48485, 24-384 limits assumed: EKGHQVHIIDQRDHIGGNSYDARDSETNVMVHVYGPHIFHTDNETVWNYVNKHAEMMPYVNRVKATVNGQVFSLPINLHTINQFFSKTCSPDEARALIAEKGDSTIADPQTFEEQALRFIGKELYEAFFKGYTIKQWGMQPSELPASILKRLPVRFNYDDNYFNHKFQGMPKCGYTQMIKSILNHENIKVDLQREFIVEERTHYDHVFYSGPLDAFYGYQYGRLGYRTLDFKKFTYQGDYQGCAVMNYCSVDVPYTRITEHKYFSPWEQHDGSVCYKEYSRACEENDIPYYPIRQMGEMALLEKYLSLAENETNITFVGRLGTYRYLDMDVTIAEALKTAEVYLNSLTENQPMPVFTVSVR
UniProt P31652, whole entry: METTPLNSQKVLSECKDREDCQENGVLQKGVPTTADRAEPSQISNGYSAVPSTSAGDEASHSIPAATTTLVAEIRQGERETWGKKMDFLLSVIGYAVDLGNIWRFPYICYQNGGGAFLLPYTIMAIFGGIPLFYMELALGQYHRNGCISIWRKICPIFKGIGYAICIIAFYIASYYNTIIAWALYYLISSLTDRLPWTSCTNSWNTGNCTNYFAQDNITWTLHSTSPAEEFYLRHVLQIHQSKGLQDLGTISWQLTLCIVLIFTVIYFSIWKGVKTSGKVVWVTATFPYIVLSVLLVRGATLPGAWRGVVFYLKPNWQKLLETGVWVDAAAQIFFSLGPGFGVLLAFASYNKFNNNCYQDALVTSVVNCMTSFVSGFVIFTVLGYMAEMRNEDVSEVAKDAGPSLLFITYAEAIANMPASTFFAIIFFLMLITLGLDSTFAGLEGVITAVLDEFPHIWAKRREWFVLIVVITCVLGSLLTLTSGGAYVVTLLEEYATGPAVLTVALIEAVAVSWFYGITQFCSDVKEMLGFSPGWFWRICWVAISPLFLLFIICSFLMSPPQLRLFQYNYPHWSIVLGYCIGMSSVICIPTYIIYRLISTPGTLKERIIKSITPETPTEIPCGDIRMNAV
UniProt Q5HH38, whole entry: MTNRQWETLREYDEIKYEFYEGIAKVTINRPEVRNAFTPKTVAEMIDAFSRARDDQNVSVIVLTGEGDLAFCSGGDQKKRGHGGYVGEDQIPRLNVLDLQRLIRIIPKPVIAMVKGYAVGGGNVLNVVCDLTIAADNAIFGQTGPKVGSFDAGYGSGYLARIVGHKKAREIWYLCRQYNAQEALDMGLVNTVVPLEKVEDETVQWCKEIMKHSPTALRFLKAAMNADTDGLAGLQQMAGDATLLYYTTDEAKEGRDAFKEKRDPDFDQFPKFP
UniProt Q9UBZ9, 1158-1251 limits assumed: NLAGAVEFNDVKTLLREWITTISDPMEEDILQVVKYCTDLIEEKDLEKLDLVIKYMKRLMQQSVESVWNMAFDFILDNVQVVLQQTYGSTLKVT
UniProt P40871, whole entry: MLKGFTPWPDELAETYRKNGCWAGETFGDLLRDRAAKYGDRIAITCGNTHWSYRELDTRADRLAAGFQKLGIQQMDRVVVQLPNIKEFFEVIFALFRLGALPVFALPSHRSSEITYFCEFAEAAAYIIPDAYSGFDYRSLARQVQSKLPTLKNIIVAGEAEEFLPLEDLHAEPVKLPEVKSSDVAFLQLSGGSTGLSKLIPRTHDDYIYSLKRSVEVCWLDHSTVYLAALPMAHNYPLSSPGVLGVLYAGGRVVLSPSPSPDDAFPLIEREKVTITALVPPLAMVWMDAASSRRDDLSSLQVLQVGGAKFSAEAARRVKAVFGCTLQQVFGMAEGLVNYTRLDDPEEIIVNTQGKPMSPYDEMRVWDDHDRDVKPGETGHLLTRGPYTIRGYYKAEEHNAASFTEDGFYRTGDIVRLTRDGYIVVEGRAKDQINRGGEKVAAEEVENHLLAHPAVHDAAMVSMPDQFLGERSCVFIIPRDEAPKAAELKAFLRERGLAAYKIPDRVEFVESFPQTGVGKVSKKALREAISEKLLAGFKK
UniProt Q86U44, whole entry, looked up: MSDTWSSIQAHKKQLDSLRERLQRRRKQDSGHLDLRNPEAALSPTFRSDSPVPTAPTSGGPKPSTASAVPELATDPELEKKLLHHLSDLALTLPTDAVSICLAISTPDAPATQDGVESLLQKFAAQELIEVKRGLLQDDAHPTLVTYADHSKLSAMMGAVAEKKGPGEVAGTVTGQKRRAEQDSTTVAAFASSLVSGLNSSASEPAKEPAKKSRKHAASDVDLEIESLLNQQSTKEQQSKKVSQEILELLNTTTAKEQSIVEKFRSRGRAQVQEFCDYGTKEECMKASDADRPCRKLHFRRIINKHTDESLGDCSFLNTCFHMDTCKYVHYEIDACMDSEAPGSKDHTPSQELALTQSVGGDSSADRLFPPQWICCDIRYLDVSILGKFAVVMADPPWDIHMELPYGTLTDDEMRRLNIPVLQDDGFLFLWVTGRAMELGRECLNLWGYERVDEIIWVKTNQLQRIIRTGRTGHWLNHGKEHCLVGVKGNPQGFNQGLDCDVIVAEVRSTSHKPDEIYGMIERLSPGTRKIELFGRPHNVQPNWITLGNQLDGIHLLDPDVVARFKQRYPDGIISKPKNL
UniProt O34453, whole entry I218V: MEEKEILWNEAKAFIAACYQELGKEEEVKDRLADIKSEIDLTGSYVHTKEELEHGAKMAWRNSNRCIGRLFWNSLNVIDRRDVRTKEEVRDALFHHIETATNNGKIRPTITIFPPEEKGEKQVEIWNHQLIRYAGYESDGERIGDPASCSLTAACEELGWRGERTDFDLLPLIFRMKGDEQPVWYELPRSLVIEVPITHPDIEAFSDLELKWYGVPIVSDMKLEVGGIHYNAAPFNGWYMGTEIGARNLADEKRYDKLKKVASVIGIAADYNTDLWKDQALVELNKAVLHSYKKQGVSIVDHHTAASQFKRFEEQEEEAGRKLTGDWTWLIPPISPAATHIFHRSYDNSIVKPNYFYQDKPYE

For `CC(C)(COP(=O)(O)OP(=O)(O)OC[C@H]1O[C@@H](n2cnc3c(N)ncnc32)[C@H](O)[C@@H]1OP(=O)(O)O)[C@@H](O)C(=O)NCCC(=O)NCCSCC(N)=O`, the Kd was 1780 ± 30 nM (gltA, with oxaloacetate (Thermoplasma acidophilum, UniProt P21553); binding, CD titration; pH 8, 20 °C).
With `CCC(c1ccc(-c2ccc(NC(C)=O)cc2)cc1)n1ccnc1` (centres unmarked) the Kd was 2000 ± 440 nM (cyp121; binding).
For `CS(=O)(=O)CCCn1c(Cn2c(=O)n(C3CC3)c3ccncc32)nc2cc(Br)ccc21`, the Kd was 7.8 ± 7.4 nM (Fusion glycoprotein F0, prefusion DS-Cav1 (Human respiratory syncytial virus A, UniProt P03420, I379V/M447V/S155C/S190F/S290C/V207L); isothermal titration calorimetry; respiratory syncytial virus A2, PBS with 1% DMSO; 25 °C).
`O=C(O)CC1Sc2nnc(-c3cccs3)n2N=C1c1ccc(Cl)cc1` (centres unmarked) has a Kd of 9000 ± 5000 nM (UDP-galactopyranose mutase (Klebsiella pneumoniae, UniProt Q48485); binding, fluorescence polarization).
`Cc1cnc(Nc2ccc(N3CCN(C)CC3)cc2)nc1Nc1cccc(NS(=O)(=O)C(C)(C)C)c1` has a Kd of 86 nM (Bromodomain-containing protein 4, BD1 (BRD4, Homo sapiens, UniProt O60885)).
`C[C@@H]1CN(C)CCN1c1nc(-c2ccc(F)cc2)cs1` has a Kd of 5 nM (Sodium-dependent serotonin transporter (Slc6a4, Rattus norvegicus, UniProt P31652); HeLa transfected with Slc6a4, membranes).
`CC(C)(COP(=O)(O)OP(=O)(O)OC[C@H]1O[C@@H](n2cnc3c(N)ncnc32)[C@H](O)[C@@H]1OP(=O)(O)O)[C@@H](O)C(=O)NCCC(=O)NCCSC(CC(=O)c1ccc(Cl)cc1)C(=O)O` (some centres unmarked) has a Kd of 2800 ± 200 nM (1,4-dihydroxy-2-naphthoyl-CoA synthase (menB, Staphylococcus aureus, UniProt Q5HH38); isothermal titration calorimetry; 22 °C).
The Kd of `Cc1nc2c[nH]c(/C=C/C=C/c3ccc(N(C)C)cc3)cn-2c1=O` is reported as 1120 nM (Alpha-synuclein, amplified patient brain aggregates (SNCA, Homo sapiens, UniProt P37840); binding).
For `Cc1ccc(C(=O)Nc2cc(Cl)ccc2C(=O)O)cc1S(=O)(=O)Nc1ccc(Cl)c(Cl)c1`, the Kd was 4000 ± 1000 nM (Replication protein A 70 kDa DNA-binding subunit, N-terminal domain (RPA1, Homo sapiens, UniProt P27694); binding, fluorescence polarisation competition; together with: FITC-ATRIP probe).
For `CCC(c1ccc(-c2ccc(O)cc2)c2cccnc12)n1ccnc1` (centres unmarked), the Kd was 1700 ± 370 nM (cyp121; binding).
With `Nc1ccc(N=Nc2cccc(F)c2F)c(N)c1` the Kd was 18000 ± 4000 nM (DNA repair protein REV1, C-terminal domain (Homo sapiens, UniProt Q9UBZ9); microscale thermophoresis; cis-trans isomer mixture, together with: labelled DNA repair protein REV1 20 nM).
The Kd of `O=C(NS(=O)(=O)OC[C@H]1O[C@@H](n2cnc3c(NCc4ccccc4)ncnc32)[C@H](O)[C@@H]1O)c1ccccc1O` is reported as 1860 nM (2,3-dihydroxybenzoate-AMP ligase (dhbE, Bacillus subtilis, UniProt P40871); binding).
For `O=C(NCc1ccc2cc(CNCC34CC(F)(C3)C4)[nH]c2c1)c1cc(=O)n2ccccc2n1`, the Kd was 0.022 nM (N6-adenosine-methyltransferase catalytic subunit (METTL3, Homo sapiens, UniProt Q86U44); binding, surface plasmon resonance).
`Nc1ccc2ccc(CCNCCCc3cccc(F)c3)cc2n1` gave a Kd of 18000 ± 2000 nM (Nitric oxide synthase oxygenase (Bacillus subtilis, UniProt O34453, I218V); binding, imidazole displacement; pH 7.6, together with: 1 mM imidazole).

For quick reference, copied from above:
`O=C(O)CC1Sc2nnc(-c3cccs3)n2N=C1c1ccc(Cl)cc1` (centres unmarked) has a Kd of 9000 ± 5000 nM (UDP-galactopyranose mutase (Klebsiella pneumoniae, UniProt Q48485); binding, fluorescence polarization).
For `CCC(c1ccc(-c2ccc(O)cc2)c2cccnc12)n1ccnc1` (centres unmarked), the Kd was 1700 ± 370 nM (cyp121; binding).
